Published values pooled from the literature.
Each line is one published result; not all experiments were run side by side. Values joined by “and” are separate records of one study, mostly repeats; a detail may differ. Numbers after ± are the reported error.

Under “ZO-1+ CD31+ endothelial cells”, `CC(C)C[C@H](NC(=O)[C@H](CCC(=O)O)NC(=O)[C@H](Cc1ccccc1)NC(=O)[C@@H]1CCCN1C(=O)CNC(=O)OCc1ccccc1)C(=O)N[C@@H](CCC(=O)O)C(=O)N[C@@H](CCCNC(=N)N)C(=O)N[C@@H](CCCNC(=N)N)C(=O)N[C@@H](Cc1ccccc1)C(=O)N[C@@H](CCCCN)C(=O)N[C@@H](CCC(N)=O)C(=O)N[C@@H](CCC(N)=O)C(=O)O` is recorded as -22% (mouse tumour model, tumour vessels; dose not given).
The tumour volume of `Cc1ccc(S(=O)(=O)N2CC2C(=O)N(C)C)cc1` (stereo not shown) is reported as 604 mm3 (mouse, Lewis lung carcinoma; intraperitoneal, 170 mg/kg, 16 doses, day 11).
`CCCC[C@@H]1NC(=O)[C@H](Cc2ccc(O)cc2)NC(=O)[C@@H]2CCCN2C(=O)[C@H](CC(=O)O)NC(=O)[C@H](C)NC(=O)[C@H](Cc2ccccc2)NC(=O)[C@@H]2CSCCC(=O)N3CN(CN(C3)C(=O)CCSC[C@@H](C(=O)N[C@@H](C)C(N)=O)NC1=O)C(=O)CCSC[C@H](NC(C)=O)C(=O)N[C@@H](CC(C)(C)C)C(=O)N1CCC[C@H]1C(=O)N[C@@H](CCC(=O)O)C(=O)N[C@H](CCCCNC(=O)CCc1cn(CCOCCOCCOCCN(CCOCCOCCOCCC(=O)N[C@H]3CSCCC(=O)N4CN5CN(C4)C(=O)CCSC[C@H](NC(=O)[C@@H](CC(=O)O)NC(=O)[C@H](Cc4cccc6ccccc46)NC(=O)[C@@H]4CCCN4C3=O)C(=O)N[C@@H](CCSC)C(=O)N[C@@H](CCCCNC(=N)N)C(=O)N[C@@H](CC(=O)O)C(=O)N[C@@H](Cc3c[nH]c4ccccc34)C(=O)N[C@@H](CO)C(=O)N[C@@H]([C@@H](C)O)C(=O)N3CCC[C@H]3C(=O)N3C[C@H](O)C[C@H]3C(=O)N[C@@H](Cc3c[nH]c4ccccc34)C(=O)N[C@H](C(N)=O)CSCCC5=O)CCOCCOCCOCCn3cc(CCC(=O)NCCCC[C@H]4NC(=O)[C@H](CCC(=O)O)NC(=O)[C@@H]5CCCN5C(=O)[C@H](CC(C)(C)C)NC(=O)[C@@H](NC(C)=O)CSCCC(=O)N5CN6CN(C5)C(=O)CCSC[C@H](NC(=O)[C@H](Cc5ccc(O)cc5)NC(=O)[C@@H]5CCCN5C4=O)C(=O)N[C@@H](Cc4ccccc4)C(=O)N[C@@H](C)C(=O)N[C@@H](CC(=O)O)C(=O)N4CCC[C@H]4C(=O)N[C@@H](Cc4ccc(O)cc4)C(=O)N[C@@H](CCCC)C(=O)N[C@H](C(=O)N[C@@H](C)C(N)=O)CSCCC6=O)nn3)nn1)C(=O)N1CCC[C@H]1C(=O)N[C@@H](Cc1ccc(O)cc1)C(=O)N2` gave a mRNA level of 0.439 (NanoString, refers to: Cd7-mRNA; mouse bearing MC38-Nectin-4 tumour, circulating white blood cells; 5 mg/kg, 24 h after dosing, unit not given; reference: vehicle).
For `O=C(O)c1ccc(-c2nc(-c3ccccc3Cl)c3sccn23)cc1`, “platelet count change” read 84.8% and 134% and 104% (C57BL/6 mice; dose not given, day 26, basal hematopoiesis).
With `COc1ccccc1-c1n[nH]c2nc(NC3CCN(C(=O)Cc4ccc(F)cc4F)CC3)ncc12` the relative abundance was 1.07 (bead binding, competition bead pull-down, refers to: LINJ.19.1590; Leishmania donovani extract; 10 µM; reference: vehicle).
For `CC(C)C[C@H](NC(=O)[C@@H](N)CCCNC(=N)N)C(=O)N[C@@H](CCCNC(=N)N)C(=O)N[C@@H](Cc1c[nH]c2ccccc12)C(=O)N1CCC[C@H]1C(=O)N[C@@H](CCCNC(=N)N)C(=O)N1CCC[C@H]1C(=O)N[C@@H](CCCNC(=N)N)C(=O)N[C@@H](Cc1c[nH]c2ccccc12)C(=O)N[C@@H](CCCNC(=N)N)C(=O)N[C@@H](CCCCN)C(=O)N1CCC[C@H]1C(=O)N1CCC[C@H]1C(=O)O`, “ABTS radical scavenging” read 0.62 fraction (0-1) (absorbance at 734 nm; 1 mg/mL, 5 min, room temperature).
The IC50 of `CC(C)CC1NCCc2cc(O)c(O)cc21` (stereo not shown) is reported as 21.7 µM (DPPH scavenging, absorbance; 30 min, dark).
`O=C1NC2(CC2)COc2ncc(F)cc2[C@H]2COCCN2c2ccn3ncc1c3n2`: “organ-to-brain weight ratio” 22.9 ± 4.81% (Sprague-Dawley rat, female, uterus; oral, 2.5 mg/kg/day, 4 weeks, end of treatment).
For `COc1ccccc1-c1n[nH]c2nc(N[C@H]3CC[C@H](NS(=O)(=O)CC(C)C)CC3)ncc12`, the relative abundance was 0.83 (bead binding, competition bead pull-down, refers to: LINJ.02.0420; Leishmania donovani extract; 10 µM; reference: vehicle).
For `c1c[nH]c(CNCc2cc(CNCc3ccc[nH]3)cc(-c3cc(CNCc4ccc[nH]4)cc(Cn4cc(COCCOCCOCCOCCOCc5cn(Cc6cc(CNCc7ccc[nH]7)cc(-c7cc(CNCc8ccc[nH]8)cc(CNCc8ccc[nH]8)c7)c6)nn5)nn4)c3)c2)c1`, IFN-gamma level read “decreased” (hACE2 mice, bronchoalveolar lavage fluid; dose not given; reference: control).
For `N#CCc1ccc(O)cc1`, the radical scavenging was 15.8 ± 1.67% (ABTS radical; 300 µg/mL).
For `[Cu+2].c1cnc2c(c1)c1nccnc1c1cccnc12.c1cnc2c(c1)c1nccnc1c1cccnc12`, “nicked circular DNA” read 94% (DNA cleavage; supercoiled pUC19 DNA; 100 µM, 30 min, added: ascorbic acid).
For `CCc1nnc(-c2c(OC)cc(-c3cnc4cc(-c5cnn(C)c5)ccn34)cc2OC)o1`, “mineralizing surface/bone surface” read 0.779 ± 0.09% (histomorphometry; male C57BL/6J mouse, tibia; oral gavage, 40 mg/kg once daily, 3 wk).
Under “action potential threshold”, `CCN(Cc1ccccc1)C(=O)CCc1nc(CN2CCN(C(=O)Cc3ccc(OC)c(OC)c3)CC2)no1` is recorded as -4.56 ± 1.88 mV (current clamp; DRG neurons, naive rat; 10 µM).
With `CO[C@H]1CC=C2CCN3CCC4=C(CC(=O)CC4)[C@]23C1` the ethanol intake was 1.1 ± 0.1 g/kg (Wistar rats, intermittent ethanol access; subcutaneous, 10 mg/kg, 30 min after drinking onset).
`CC(C)(C)C(=O)OCOP(=O)(OCOC(=O)C(C)(C)C)C1CCCN(O)C1=O` (stereo not shown) gave a CC50 of over 100 µM (SF-539).
With `NNC(=O)c1ccccc1` the normalised absorbance was 0.733 (hydrazine ligation kinetics, absorbance; concentration not given, 35 s, added: 2-formylphenylboronic acid).
With `C[C@H](NCc1ccc(-c2ccc(C(F)(F)F)cc2)cc1)C(N)=O` the step-through latency was 60.6 ± 16.7 s (passive avoidance acquisition; APP/PS1 mice; oral, 10 mg/kg, 72 h, 3 days treatment).
The cytokine level of `CC(C)C[C@@H]1NC(=O)[C@@H](Cc2c[nH]c3ccccc23)NC(=O)[C@H](CCCNC(=N)N)NC(=O)[C@@H](CCC(=O)O)NC(=O)[C@H](CCC(N)=O)NC(=O)[C@@H](CCC(=O)O)NC(=O)[C@H](CCCNC(=N)N)NC(=O)[C@@H](Cc2c[nH]c3ccccc23)NC1=O` is reported as 31 ± 15 pg/g tissue (Luminex, refers to: IL3; LDLr-/- mice, Western diet, liver; dose not given, 4 weeks).

Repeated from above:
For `c1c[nH]c(CNCc2cc(CNCc3ccc[nH]3)cc(-c3cc(CNCc4ccc[nH]4)cc(Cn4cc(COCCOCCOCCOCCOCc5cn(Cc6cc(CNCc7ccc[nH]7)cc(-c7cc(CNCc8ccc[nH]8)cc(CNCc8ccc[nH]8)c7)c6)nn5)nn4)c3)c2)c1`, IFN-gamma level read “decreased” (hACE2 mice, bronchoalveolar lavage fluid; dose not given; reference: control).
`O=C1NC2(CC2)COc2ncc(F)cc2[C@H]2COCCN2c2ccn3ncc1c3n2`: “organ-to-brain weight ratio” 22.9 ± 4.81% (Sprague-Dawley rat, female, uterus; oral, 2.5 mg/kg/day, 4 weeks, end of treatment).
With `CO[C@H]1CC=C2CCN3CCC4=C(CC(=O)CC4)[C@]23C1` the ethanol intake was 1.1 ± 0.1 g/kg (Wistar rats, intermittent ethanol access; subcutaneous, 10 mg/kg, 30 min after drinking onset).
